Published values gathered from unrelated publications.
Every numbered part comes from another study and shows a few of its results, in no order. Positions count from the first letter of the parent shown.
Chain of UniProt Q6XUX3 (whole entry, looked up): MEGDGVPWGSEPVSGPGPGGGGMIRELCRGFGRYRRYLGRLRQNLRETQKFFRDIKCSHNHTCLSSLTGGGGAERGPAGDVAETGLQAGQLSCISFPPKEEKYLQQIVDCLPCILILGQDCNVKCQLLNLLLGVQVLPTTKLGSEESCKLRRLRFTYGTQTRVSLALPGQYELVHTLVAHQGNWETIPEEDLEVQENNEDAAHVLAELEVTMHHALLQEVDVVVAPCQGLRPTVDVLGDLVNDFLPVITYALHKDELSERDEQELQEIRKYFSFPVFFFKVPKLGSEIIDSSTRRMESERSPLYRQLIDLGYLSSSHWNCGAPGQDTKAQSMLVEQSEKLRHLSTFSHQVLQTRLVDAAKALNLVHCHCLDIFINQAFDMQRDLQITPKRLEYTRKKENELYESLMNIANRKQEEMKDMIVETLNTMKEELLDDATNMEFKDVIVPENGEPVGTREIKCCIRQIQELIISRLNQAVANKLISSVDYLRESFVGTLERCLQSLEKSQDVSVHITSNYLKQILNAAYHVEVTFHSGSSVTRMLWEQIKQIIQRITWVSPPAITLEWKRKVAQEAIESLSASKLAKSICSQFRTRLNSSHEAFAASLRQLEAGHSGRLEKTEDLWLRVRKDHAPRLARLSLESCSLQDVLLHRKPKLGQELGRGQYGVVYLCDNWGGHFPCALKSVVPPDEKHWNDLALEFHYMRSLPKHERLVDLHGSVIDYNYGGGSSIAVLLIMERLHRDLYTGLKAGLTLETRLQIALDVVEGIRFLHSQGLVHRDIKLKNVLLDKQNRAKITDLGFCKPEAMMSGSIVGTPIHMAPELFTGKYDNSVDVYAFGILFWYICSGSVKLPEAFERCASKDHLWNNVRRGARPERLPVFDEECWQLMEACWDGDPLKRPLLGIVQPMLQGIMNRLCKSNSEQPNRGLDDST
Chain of UniProt Q96Q40 (whole entry, looked up): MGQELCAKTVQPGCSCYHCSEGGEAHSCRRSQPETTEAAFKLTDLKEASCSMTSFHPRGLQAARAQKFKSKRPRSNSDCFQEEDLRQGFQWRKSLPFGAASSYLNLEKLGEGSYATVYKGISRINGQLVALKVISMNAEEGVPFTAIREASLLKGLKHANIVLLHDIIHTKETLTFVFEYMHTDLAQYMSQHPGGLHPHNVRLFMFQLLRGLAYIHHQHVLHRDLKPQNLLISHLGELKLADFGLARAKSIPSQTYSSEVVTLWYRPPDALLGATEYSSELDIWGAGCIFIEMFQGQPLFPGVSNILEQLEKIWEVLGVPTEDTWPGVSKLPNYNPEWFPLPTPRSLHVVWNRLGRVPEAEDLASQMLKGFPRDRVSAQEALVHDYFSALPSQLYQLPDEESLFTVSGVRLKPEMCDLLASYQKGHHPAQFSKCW
Chain of UniProt P09619 (whole entry, looked up): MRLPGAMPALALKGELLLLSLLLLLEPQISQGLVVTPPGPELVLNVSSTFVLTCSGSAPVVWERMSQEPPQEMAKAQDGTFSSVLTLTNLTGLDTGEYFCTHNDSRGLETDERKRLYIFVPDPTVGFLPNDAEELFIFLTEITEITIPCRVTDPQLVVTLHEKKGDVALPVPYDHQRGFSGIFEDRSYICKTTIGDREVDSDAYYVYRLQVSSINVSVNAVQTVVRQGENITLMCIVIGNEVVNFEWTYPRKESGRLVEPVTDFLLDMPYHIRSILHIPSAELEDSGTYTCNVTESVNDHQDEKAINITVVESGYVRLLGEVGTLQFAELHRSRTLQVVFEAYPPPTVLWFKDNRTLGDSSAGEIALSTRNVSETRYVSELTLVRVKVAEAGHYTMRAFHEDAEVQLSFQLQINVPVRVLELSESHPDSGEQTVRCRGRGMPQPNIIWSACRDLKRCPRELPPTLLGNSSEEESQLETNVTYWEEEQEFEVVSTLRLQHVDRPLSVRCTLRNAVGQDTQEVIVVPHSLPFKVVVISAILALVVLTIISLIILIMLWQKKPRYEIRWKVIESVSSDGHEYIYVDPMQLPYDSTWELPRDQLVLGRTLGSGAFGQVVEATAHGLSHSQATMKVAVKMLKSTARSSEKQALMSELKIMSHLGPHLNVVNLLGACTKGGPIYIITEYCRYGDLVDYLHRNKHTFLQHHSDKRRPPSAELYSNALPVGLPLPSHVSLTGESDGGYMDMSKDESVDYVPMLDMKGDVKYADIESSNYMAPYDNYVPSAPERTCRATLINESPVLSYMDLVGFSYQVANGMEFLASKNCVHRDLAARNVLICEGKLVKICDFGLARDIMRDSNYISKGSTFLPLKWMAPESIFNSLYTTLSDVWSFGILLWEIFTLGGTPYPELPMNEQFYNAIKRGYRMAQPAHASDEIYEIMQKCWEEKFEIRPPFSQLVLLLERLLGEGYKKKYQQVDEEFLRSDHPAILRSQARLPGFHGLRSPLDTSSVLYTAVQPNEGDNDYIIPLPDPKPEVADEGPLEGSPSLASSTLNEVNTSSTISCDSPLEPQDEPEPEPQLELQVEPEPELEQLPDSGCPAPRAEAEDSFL
Chain of UniProt Q9H422 (whole entry, looked up): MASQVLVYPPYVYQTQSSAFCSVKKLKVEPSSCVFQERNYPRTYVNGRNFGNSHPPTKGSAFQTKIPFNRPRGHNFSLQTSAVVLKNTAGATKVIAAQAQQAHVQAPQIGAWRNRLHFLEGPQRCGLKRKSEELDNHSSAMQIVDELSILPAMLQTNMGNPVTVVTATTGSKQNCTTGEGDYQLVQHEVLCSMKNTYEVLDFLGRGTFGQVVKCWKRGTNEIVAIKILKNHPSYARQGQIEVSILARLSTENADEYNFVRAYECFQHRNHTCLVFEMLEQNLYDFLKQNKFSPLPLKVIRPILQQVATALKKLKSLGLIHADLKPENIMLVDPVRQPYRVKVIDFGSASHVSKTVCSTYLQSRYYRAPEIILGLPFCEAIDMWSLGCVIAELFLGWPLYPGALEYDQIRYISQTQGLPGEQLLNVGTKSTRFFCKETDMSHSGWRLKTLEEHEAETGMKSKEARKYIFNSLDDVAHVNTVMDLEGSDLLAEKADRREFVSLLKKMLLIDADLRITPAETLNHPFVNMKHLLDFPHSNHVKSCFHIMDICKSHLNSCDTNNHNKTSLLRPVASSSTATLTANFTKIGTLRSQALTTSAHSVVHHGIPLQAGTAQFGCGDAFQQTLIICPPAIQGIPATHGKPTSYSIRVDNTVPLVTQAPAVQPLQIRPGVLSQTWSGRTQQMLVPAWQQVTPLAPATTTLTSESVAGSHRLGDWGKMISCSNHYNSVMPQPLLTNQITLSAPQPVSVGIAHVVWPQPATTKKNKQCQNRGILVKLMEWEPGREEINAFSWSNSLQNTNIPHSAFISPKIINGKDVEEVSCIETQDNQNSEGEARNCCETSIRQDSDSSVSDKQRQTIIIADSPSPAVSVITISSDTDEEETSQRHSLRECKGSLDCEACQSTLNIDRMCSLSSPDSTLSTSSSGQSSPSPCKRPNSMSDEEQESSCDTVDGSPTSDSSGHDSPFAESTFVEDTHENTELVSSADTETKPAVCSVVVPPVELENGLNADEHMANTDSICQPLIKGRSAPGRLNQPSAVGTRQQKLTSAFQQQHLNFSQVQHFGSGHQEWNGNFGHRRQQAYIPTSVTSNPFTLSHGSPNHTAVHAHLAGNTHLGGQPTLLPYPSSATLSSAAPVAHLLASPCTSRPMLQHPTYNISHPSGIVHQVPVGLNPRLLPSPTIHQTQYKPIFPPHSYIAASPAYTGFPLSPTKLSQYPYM
Chain of UniProt P21709 (whole entry, looked up): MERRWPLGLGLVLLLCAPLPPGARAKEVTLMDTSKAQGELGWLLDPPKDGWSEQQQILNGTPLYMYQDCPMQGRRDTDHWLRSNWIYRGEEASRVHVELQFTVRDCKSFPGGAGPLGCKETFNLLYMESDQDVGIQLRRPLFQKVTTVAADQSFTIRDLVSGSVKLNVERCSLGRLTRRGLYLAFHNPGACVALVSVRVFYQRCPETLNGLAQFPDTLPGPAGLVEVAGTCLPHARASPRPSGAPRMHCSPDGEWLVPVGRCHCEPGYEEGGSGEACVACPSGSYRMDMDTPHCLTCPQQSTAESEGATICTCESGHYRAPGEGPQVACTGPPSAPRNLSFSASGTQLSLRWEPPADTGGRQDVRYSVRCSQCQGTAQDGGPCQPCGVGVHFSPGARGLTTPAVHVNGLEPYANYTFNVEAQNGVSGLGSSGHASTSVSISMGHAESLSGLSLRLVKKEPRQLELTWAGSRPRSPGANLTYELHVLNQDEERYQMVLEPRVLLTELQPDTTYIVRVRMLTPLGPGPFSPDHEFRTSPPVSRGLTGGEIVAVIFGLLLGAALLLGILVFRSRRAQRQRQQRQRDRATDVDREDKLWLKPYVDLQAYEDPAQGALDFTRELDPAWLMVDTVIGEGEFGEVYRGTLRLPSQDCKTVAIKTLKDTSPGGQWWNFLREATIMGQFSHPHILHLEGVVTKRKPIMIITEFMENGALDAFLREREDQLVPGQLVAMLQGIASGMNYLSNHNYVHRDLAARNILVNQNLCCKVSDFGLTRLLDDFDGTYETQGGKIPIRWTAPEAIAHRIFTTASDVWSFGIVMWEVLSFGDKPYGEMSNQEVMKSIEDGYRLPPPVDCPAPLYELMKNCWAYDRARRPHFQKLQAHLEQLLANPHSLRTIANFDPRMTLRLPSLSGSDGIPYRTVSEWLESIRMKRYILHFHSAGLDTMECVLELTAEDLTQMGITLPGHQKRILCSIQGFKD

Block 1
SMILES: CC1=C(C#N)C(c2ccc3c(c2)c(NC(=O)c2ccccc2C)nn3C)C(C#N)=C(C)N1
Concentration: 1 µM
For Tyrosine-protein kinase ABL2 (ABL2, Homo sapiens, UniProt P42684); cell-free assay, competition with immobilised ligand: remaining binding read 99%.
The remaining binding was 88% (Ephrin type-A receptor 1 (EPHA1, Homo sapiens, UniProt P21709); cell-free assay, competition with immobilised ligand).
Serine/threonine-protein kinase SIK1 (SIK1, Homo sapiens, UniProt P57059); competition binding — remaining binding: 88%.
For Dual serine/threonine and tyrosine protein kinase (DSTYK, Homo sapiens, UniProt Q6XUX3); cell-free assay, competition with immobilised ligand: remaining binding read 72%.
For MAP kinase-interacting serine/threonine-protein kinase 1 (MKNK1, Homo sapiens, UniProt Q9BUB5); cell-free assay, competition with immobilised ligand: remaining binding read 70%.
Cyclin-dependent kinase 11A (CDK11A, Homo sapiens, UniProt Q9UQ88); binding, competition with immobilised ligand — remaining binding: 100%.
Discoidin domain-containing receptor 2 (DDR2, Homo sapiens, UniProt Q16832); cell-free assay, competition with immobilised ligand — remaining binding: 86%.
The remaining binding was 73% (Homeodomain-interacting protein kinase 3 (HIPK3, Homo sapiens, UniProt Q9H422); cell-free assay, competition with immobilised ligand).
It gave 100% for remaining binding (Cyclin-dependent kinase 15 (CDK15, Homo sapiens, UniProt Q96Q40); cell-free assay, competition with immobilised ligand).
It gave 100% for remaining binding (Cyclin-G-associated kinase (GAK, Homo sapiens, UniProt O14976); cell-free assay, competition with immobilised ligand).
For cGMP-dependent protein kinase 2 (PRKG2, Homo sapiens, UniProt Q13237); cell-free assay, competition with immobilised ligand: remaining binding read 72%.
The remaining binding was 94% (Platelet-derived growth factor receptor beta (PDGFRB, Homo sapiens, UniProt P09619); cell-free assay, competition with immobilised ligand).
It gave 90% for remaining binding (Receptor-type tyrosine-protein kinase FLT3 (FLT3, Homo sapiens, UniProt P36888); cell-free assay, competition with immobilised ligand).
It gave 87% for remaining binding (Serine/threonine-protein kinase RIO3 (RIOK3, Homo sapiens, UniProt O14730); cell-free assay, competition with immobilised ligand).

Block 2
Compound: CN(C)S(=O)(=O)c1ccc2c(c1)/C(=C/c1cc3c([nH]1)CCCC3)C(=O)N2
Read-out: enzyme activity
Mode: inhibitor
Concentration: 0.5 µM
Reference: control
It gave 13.9% for remaining activity (Tyrosine-protein kinase Blk (BLK, Homo sapiens, UniProt P51451)).
For Phosphorylase b kinase gamma catalytic chain, skeletal muscle/heart isoform (PHKG1, Homo sapiens, UniProt Q16816): remaining activity read 72.4%.
It gave 39.7% for remaining activity (Tyrosine-protein kinase receptor UFO (AXL, Homo sapiens, UniProt P30530)).
It gave 67.4% for remaining activity (Ribosomal protein S6 kinase alpha-6 (RPS6KA6, Homo sapiens, UniProt Q9UK32)).
It gave 114% for remaining activity (cAMP-dependent protein kinase catalytic subunit gamma (PRKACG, Homo sapiens, UniProt P22612)).
It gave 99.1% for remaining activity (Dual specificity tyrosine-phosphorylation-regulated kinase 3 (DYRK3, Homo sapiens, UniProt O43781)).

Block 3
Target: RING finger protein unkempt homolog, zinc fingers 1-6, GST-SBP tag (UNK, Homo sapiens, UniProt Q9C0B0, residues 30-357)
Chain of UniProt Q9C0B0 (30-357, looked up): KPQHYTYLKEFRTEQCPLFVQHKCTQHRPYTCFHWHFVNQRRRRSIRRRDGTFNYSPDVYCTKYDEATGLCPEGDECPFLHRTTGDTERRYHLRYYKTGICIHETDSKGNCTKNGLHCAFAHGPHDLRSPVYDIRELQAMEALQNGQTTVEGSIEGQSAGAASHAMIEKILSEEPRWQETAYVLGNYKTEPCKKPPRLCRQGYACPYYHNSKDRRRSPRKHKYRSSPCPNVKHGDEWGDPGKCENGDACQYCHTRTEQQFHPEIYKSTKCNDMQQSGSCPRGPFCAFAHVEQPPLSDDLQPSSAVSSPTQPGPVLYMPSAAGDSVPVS
Method: RNA Bind-n-Seq
Form: RNA
Matrix: in vitro
Concentration: not given
Notes: RNA with constant flanks, ends assumed
Reference: input RNA pool
Reading: higher = stronger binding
For `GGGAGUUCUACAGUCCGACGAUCACCCUUUCUGGGGUCCAAGAAGAAUCUGCCCUUUGCUAUCUUCUCCAAGUUGAUGAGUUCCGAUUUUUAUUGGACUGUGGCUGGGAUGAGCACUUUUCUAUGGAUAUUAUUGAUUCCCUGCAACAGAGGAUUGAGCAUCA`, the bound/input enrichment was 0.217 ratio.
The bound/input enrichment of `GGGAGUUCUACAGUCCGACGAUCCUCUUUGAUCAGGCAUAUUUGAUGAGGCCUUCUAUAAUAUUUUUUGAUGAAAUAGAUGGCUCCGCUCCUGUUCGUUCUAGUAGACAAGAUCAGAUCCACAGCUCUAUAGUGUCAACCCUCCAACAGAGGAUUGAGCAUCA` is reported as 0.294 ratio.
For `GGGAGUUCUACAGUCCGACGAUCAUAAUGUUUGAGUCCUUCAAUGUUCCAGGCUUGUACAUUGCUGUGCAGGCUGUUCUUGCCUCCGCUGCAUCUUGGACCUCAAGACAAGUAGGAGAACGGACGUUGACCGGUACGGUAAUACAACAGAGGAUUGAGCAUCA`, the bound/input enrichment was 0.212 ratio.
`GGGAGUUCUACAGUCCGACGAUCGCUGGCUUCUUUGGACUCCCUAUAUGAUUGAUGAUGUGAAAACCUAAAUUACUUGCAGCACCGUAUUACUUCUUUGAUGUUCUCAUUAGCAUAAUGUUAUUUUUGAAAAGGAAAGAUACUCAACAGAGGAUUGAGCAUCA` has a bound/input enrichment of 1.61 ratio.
The bound/input enrichment of `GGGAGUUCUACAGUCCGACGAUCAUUCAGGCACAACUGACUGGUUCACAGCACUCCUUACAUAGUUAUCUAUCAAAUUCAAGUGCCGUUAAUUUUCAGGAAACAACCAGGCAGUCAUCUUUAUCCUGUAGCCCAAUUGGAGAUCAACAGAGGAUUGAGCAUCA` is reported as 17.2 ratio.
For `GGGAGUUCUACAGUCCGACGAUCAUUUUGGAAUCAGUUCUUAUAAACAGCUCGAUUCAGUUUUAGCUAAAUUUAUAGUUCCGGCCGUAUGUUACAUUUGAAUUUUUGUCUUAAGAAAAGUUGACUGUUCAGAUAUUUUUCUACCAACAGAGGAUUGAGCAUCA`, the bound/input enrichment was 0.933 ratio.
With `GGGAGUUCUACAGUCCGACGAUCAUUCGCCUUUGUCUUGUACUUCUGUGUUCAUUCUCCUCCCCCACCCCCAAUUUUUGCCCGUGUGUCCACUAUCCCAAUCAAAGAAUUACAGUAUACGUCACCCCAGAACCCGCAGAUGUGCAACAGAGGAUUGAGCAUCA` the bound/input enrichment was 0.711 ratio.
`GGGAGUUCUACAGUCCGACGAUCUAAGUAUGAAAUGGUGUAUGCCAGUACACAUUCCUCUUCCAGUUCUCCUAAGUGCUGACCACCCGGUCAGUCUGGGACACAUCAGUGUAUGGCUAGGCUGGCUAGCUUUAGCACAGUGGACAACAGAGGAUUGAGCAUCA` has a bound/input enrichment of 0.165 ratio.

Block 4
Target: ABI1, truncated, D143A, DHFR fusion (Arabidopsis thaliana)
Method: DHFR PCA, deep sequencing
Matrix: yeast
Notes: methotrexate growth selection, single substitutions
Added: (+)-ABA 4.8 µM
Reference: wild-type fitted maximum
Reading: higher = stronger binding
Starting sequence: PYL1, truncated, DHFR fusion (Arabidopsis thaliana); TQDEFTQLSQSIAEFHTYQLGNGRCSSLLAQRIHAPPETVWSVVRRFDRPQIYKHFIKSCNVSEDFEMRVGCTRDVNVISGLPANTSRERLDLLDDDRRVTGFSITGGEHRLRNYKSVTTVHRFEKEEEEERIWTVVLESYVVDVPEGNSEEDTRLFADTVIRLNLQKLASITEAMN
For `P83M`, “relative binding score” read 11.8%.
`T120E` — result for “relative binding score”: -0.762%.
`G21A` — result for “relative binding score”: 74.5%.
For `Y141C`, “relative binding score” read 8.98%.
`T39F`: “relative binding score” 48.7%.
`D75E`: “relative binding score” 84.2%.
`V40K`: “relative binding score” 3.9%.
For `Y115P`, “relative binding score” read -3.22%.
